Measurements collected from several papers.
Lines come from different studies, so protocols differ. Values joined by “and” are separate records of one study, mostly repeats; a detail may differ. Numbers after ± are the reported error.
UniProt P51451, sequence (whole entry, looked up): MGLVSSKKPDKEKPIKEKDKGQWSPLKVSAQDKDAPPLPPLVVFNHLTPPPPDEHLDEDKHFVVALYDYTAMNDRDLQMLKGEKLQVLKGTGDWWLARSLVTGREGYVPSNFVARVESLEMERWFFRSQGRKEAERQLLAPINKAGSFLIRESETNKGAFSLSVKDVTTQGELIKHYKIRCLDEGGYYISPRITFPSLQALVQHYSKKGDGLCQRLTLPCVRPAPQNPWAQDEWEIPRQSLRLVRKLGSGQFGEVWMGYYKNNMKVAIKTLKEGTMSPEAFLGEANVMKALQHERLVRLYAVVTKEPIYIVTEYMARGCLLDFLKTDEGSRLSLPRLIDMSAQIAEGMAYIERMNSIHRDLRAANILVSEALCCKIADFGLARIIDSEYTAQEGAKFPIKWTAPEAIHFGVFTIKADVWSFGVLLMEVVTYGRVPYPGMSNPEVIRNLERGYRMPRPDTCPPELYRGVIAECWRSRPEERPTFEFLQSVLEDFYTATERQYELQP

The amount of COc1cc(O)ccc1CCC(c1ccc(O)cc1)c1cc2c(c(C)c1O)OC(c1ccc(O)cc1)CC2 (mixture of isomers) is reported as 26400 ± 14000 pg/mL blood (item: TXB2; human whole blood; 0.3 µM, with: Escherichia coli).
For Fc1cccc(-n2cc(-c3ccccc3)nc2NCc2ccc(C(F)(F)F)c(F)c2)c1, the rate constant was 0.425 ± 0.0375 s⁻¹ (DPPH radical scavenging; methanol; first order kinetics).
C=CC(=O)Nc1cccc(Cn2ncc3cnc(Nc4cnn(CCOC)c4)nc32)c1 — result for “percent of control”: 72% (PIKFYVE human; binding, KINOMEscan; 100 nM; lower = stronger binding).
For CN1CCC[C@]1(C)/C=C/S(=O)(=O)NC(=O)Nc1c2c(cc3c1CCC3)CCC2, the IL-18 inhibition was 72.3% (human, whole blood ex vivo; 12.5 mg twice daily, day 14, 12 h, multiple ascending dose, with: LPS and ATP).
For NC[C@@H](C(=O)Nc1ccc(-c2cn[nH]c2)cc1)c1ccccc1, the IOP was 16.3 mmHg (tonometry; Macaca cyclopis, ocular normotensive; ocular, 0.1%, 8 h).
CC(C)OC(=O)[C@H](CO)NCc1cc(Cl)c(OCc2cccc(-c3ccccc3)c2Br)cc1OCc1cccnc1 — result for “tumour volume T/C”: 40.8% (hPD-L1 MC-38 tumour, humanised hPD-1 C57BL/6 mouse; oral, 5 mg/kg × 21, day 20; relative to: vehicle).
For COc1ccc(C(=O)CCc2cc(C(CCc3ccc(O)cc3OC)c3ccc(O)cc3)c(O)cc2OC)cc1 (racemic), the LTB4 level was 2600 ± 1030 pg/mL (human blood; 1 µM, with: A23187).
The IC50 of Cc1nn(-c2cccc(N)c2)c(=O)c2cnc(Nc3ccc(N4CCNCC4)cc3)nc12 is reported as 1500 nM (Tyrosine-protein kinase Blk (BLK, Homo sapiens, UniProt P51451); kinase activity, inhibitor, SelectScreen kinase profiling).
For CC(=O)[O-].O.O.O.O.[Ni+2].[O-]c1ccc(Br)cc1C=NCCN1CCOCC1, “ferric reducing power” read 50.9% (FRAP; 200 µM).
O=[N+]([O-])[O-].O=c1c(C=NN=C([S-])Nc2ccccc2)coc2ccccc12.[Cu+2].c1cnc2c(c1)ccc1cccnc12 — result for “supercoiled DNA form”: 0% (oxidative DNA cleavage; supercoiled pUC19 DNA; 100 µM, 30 min, with: ascorbic acid 50 µM, DNA 40 µM).
C[C@@H](Nc1c(-c2c(F)cc(C#N)cc2F)c(Cl)nc2ncnn12)C(C)(C)C: “Iba1 microglial staining” “decreased” (male PS19 tau transgenic mice, brain; intraperitoneal, 3 mg/kg twice weekly, 3 months; relative to: vehicle).
With Nc1ncc(-c2cc(-c3cnn(CC(F)(F)F)c3)ncc2F)nc1C(=O)NC1CNCC(F)C1 (stereo not drawn) the remaining binding was 99% (NEK7; KINOMEscan; 1 µM; relative to: DMSO control).
COCC1CN(C2CCN(c3cc(OC)c(Nc4ncc(Br)c(Nc5ccc6c(c5P(C)(C)=O)OCCO6)n4)cc3C)CC2)C1 gave a partial response of 0% (RECIST 1.1; advanced EGFR-mutant NSCLC patients; 10 mg once daily).
The colony survival of COc1ccccc1-c1ccncc1C(=O)Nc1nnc(OCc2ccc(Cl)cc2)s1 is reported as 88% (Brca1 Δ11/Δ11 MEF sgGFP, Mus musculus; 1.25 µM, mean of all runs; relative to: 0 µM).
For COCCOCCOCCNC(=O)Cc1cc(CC(=O)N[C@H]2C[C@H]3C(=O)Nc4cc(OCCOCCOCCOC)cc(n4)C(=O)N4CCC[C@H]4C(=O)Nc4cc(OCCOCCOCCOC)cc(n4)C(=O)N4CCC[C@H]4C(=O)Nc4cc(OCCOCCOCCOC)cc(n4)C(=O)N3C2)cc(CC(=O)N[C@H]2C[C@H]3C(=O)Nc4cc(OCCOCCOCCOC)cc(n4)C(=O)N4CCC[C@H]4C(=O)Nc4cc(OCCOCCOCCOC)cc(n4)C(=O)N4CCC[C@H]4C(=O)Nc4cc(OCCOCCOCCOC)cc(n4)C(=O)N3C2)c1, the ΔH was -4.6 ± 0.1 kJ/mol (anion binding, ITC; water/methanol 95 vol% (97.7 mol%); 298 K, with: sodium iodide).
For C[n+]1cc(/C=N/NC(=O)c2cc(C(=O)N/N=C/c3cc4ccccc4[n+](C)c3)ncn2)cc2ccccc21, the ΔTm was 2.6 ± 0.4 °C (telomeric G4 DNA hybrid-2; FRET melting; 1 µM, DNA 0.2 µM, with: duplex DNA competitor 10 µM).
C=CC(=O)N1[C@@H](c2ccc3c(c2)OCO3)c2[nH]c3ccccc3c2C[C@H]1C(=O)N1CCN(C)CC1 has a relative co-enrichment of 81% (human cyclin E1 wild type-3xFLAG:CDK2; co-IP with TMT proteomics, item: PNN; concentration not given, Q9H307; relative to: wild type DMSO).
For O=S(=O)(NCc1ccncc1)c1ccc(C2CCCCC2)cc1, “PU.1+ nuclei reduction” read ~25% (immunohistochemistry; CK-p25 mice female, hippocampus; ip, 0.3 mg/kg daily, 6 wk; relative to: vehicle).
Under “log2 fold change”, COC1CN([C@H]2CC[C@H]([C@@]3(C)Oc4c(Cl)cc(C(=O)NCc5c(SC)cc(C)[nH]c5=O)c(C)c4O3)CC2)C1 is recorded as 1.37 (RNA-seq, item: WDR26; human, whole blood; dose not given, 24 h; relative to: pretreatment baseline).
For CNS(=O)(=O)Nc1nccc(Cc2c(C)c3ccc(Oc4ncccc4F)cc3oc2=O)c1F, the IC50 was 5.17 nM (SCaBER; cell viability; 7 days).
Cc1ncsc1-c1ccc(C(C)NC(=O)C2CC(O)CN2C(=O)C(NC(=O)CCCCCCCCCCN2CCCC(Nc3ncc(Cl)c(Nc4ccccc4S(=O)(=O)C(C)C)n3)C2)C(C)(C)C)cc1 (stereo not drawn): “log2 fold change” -1.2 (22Rv1; RNA-seq, item: TMEM104 mRNA; concentration not given; relative to: DMSO).
C=C(NC(=O)c1csc(-c2nc3c(cc2O)-c2nc(cs2)C(=O)NC(C(C)O)C(=O)NC(=C(C)OC)c2nc(cs2)C(=O)NC2c4nc(cs4)C(=O)NC(COC(=O)c4c5c6c(cccc6n4O)COC(=O)C(OC4CC(C)(O)C(N(C)C)C(C)O4)C2OC5)c2nc-3cs2)n1)C(N)=O (stereo not drawn) gave an MRT(0-last) of 1.78 h (cynomolgus monkey, both sexes, plasma; intravenous infusion, 9 mg/kg single dose).
CCCCCc1ccc(S(=O)(=O)N2CC2C(=O)OC)cc1 (stereo not drawn) has a tumour volume of 313 mm3 (mouse, Lewis lung carcinoma; intraperitoneal, 15 mg/kg, 16 doses, day 11).
COc1c(Cl)cccc1Nc1c(-c2ccncc2C#C[C@@]2(C)CCCN2C(=O)/C=C/CN(C)C)[nH]c2c1C(=O)NCC2 — result for “tumour growth inhibition”: 107% (NCI-H2073 EGFR SVD knock-in xenograft, BALB/c nude mice; 50 mg/kg once daily, 21 days).
CCCCCCCCCCCCCCCC(=O)OCC(CSC[C@H](N)C(=O)N[C@@H](CO)C(=O)N[C@@H](CCCCN)C(=O)N[C@@H](CCCCN)C(=O)N[C@@H](CCCCN)C(=O)N[C@@H](CCCCN)C(=O)NCCCCCC(=O)N[C@@H](CCCCN)C(=O)N[C@@H](CC(C)C)C(=O)N[C@H](C(=O)N[C@@H](Cc1ccccc1)C(=O)N[C@@H](Cc1ccccc1)C(=O)N[C@@H](Cc1ccc2ccccc2c1)C(=O)O)C(C)C)OC(=O)CCCCCCCCCCCCCCC (stereo partly drawn): “cleaved caspase-3 level” 0.25 and 0.000301 and 1.2 and 0.554 and 0.201 (APP/PS1 transgenic mouse, hippocampus; intrahippocampal, dose not given, unit not given; relative to: injected over adjacent side).
The plaque area of CC(C)[C@H](NC(=O)[C@H](CC(=O)O)NC(=O)[C@@H](NC(=O)[C@H](Cc1c[nH]c2ccccc12)NC(=O)[C@H](CCC(=O)O)NC(=O)[C@H](C)NC(=O)[C@H](CC(=O)O)NC(=O)CNC(=O)[C@H](Cc1ccc(O)cc1)NC(=O)[C@H](Cc1ccc(OP(=O)(O)O)cc1)NC(=O)[C@H](Cc1ccc(O)cc1)NC(=O)CCNC(=O)c1ccc(C(=O)[O-])c(-c2c3ccc(=[N+](C)C)cc-3oc3cc(N(C)C)ccc23)c1)C(C)C)C(=O)N[C@@H](CO)C(=O)O is reported as 24.9 ± 1.7% (Oil Red O staining; ApoE-/- mice high-fat diet, aorta; iv, 3.65 mg/kg every three days, 21 days).
Under “log2 fold change”, CN1CCCNC(=O)c2cccc(c2)C(=O)NCCCN(C)CCCNc2cccc3c2C(=O)c2cccc(c2C3=O)NCCC1 is recorded as -0.652 (SAS; RNA-Seq, item: HJURP mRNA; 1 µM, 6 h; relative to: untreated cells).
COc1ccc(NC(=O)c2ccc3[nH]c(-c4ccc(N(C)C)cc4)nc3c2)cn1 gave a tumour volume of 82.7 mm3 and 171 mm3 and 161 mm3 and 87.1 mm3 and 106 mm3 (CT26, BALB/c nude mice, subcutaneous graft; dose not given, day 2).
For O=C(Nc1cnccc1-c1ccc([18F])nc1)c1ccnc(NC(=O)C2CC2)c1, the median SUV was 0.092 (PET imaging; FVB/NJ mice, both sexes, brain; intravenous, 10 min post-injection).
For CC(CCC(=O)NCc1ccc(C(=O)NO)cc1)C1CCC2C3C(O)CC4CC(O)CCC4(C)C3CCC12C (stereo not drawn), the relative abundance was 11.9% (item: GCA; PCK rat (Pkhd1 mutant), bile; oral gavage, dose not given, 5 months; relative to: total bile acids).

Some of these lines once more:
For CN1CCC[C@]1(C)/C=C/S(=O)(=O)NC(=O)Nc1c2c(cc3c1CCC3)CCC2, the IL-18 inhibition was 72.3% (human, whole blood ex vivo; 12.5 mg twice daily, day 14, 12 h, multiple ascending dose, with: LPS and ATP).
For NC[C@@H](C(=O)Nc1ccc(-c2cn[nH]c2)cc1)c1ccccc1, the IOP was 16.3 mmHg (tonometry; Macaca cyclopis, ocular normotensive; ocular, 0.1%, 8 h).
CC(C)OC(=O)[C@H](CO)NCc1cc(Cl)c(OCc2cccc(-c3ccccc3)c2Br)cc1OCc1cccnc1 — result for “tumour volume T/C”: 40.8% (hPD-L1 MC-38 tumour, humanised hPD-1 C57BL/6 mouse; oral, 5 mg/kg × 21, day 20; relative to: vehicle).
